Measurements pooled from the literature.
Several values in a cell are separate wells, animals, samples, runs or records. ± marks the error that the study gave. Values after ≈ are worked out from the molar mass of the structure shown.
rep main protease: Replicase polyprotein 1ab, main protease (rep, Severe acute respiratory syndrome coronavirus 2, UniProt P0DTD1)

With `COc1ccc(C[C@@H]2c3cc(Oc4cc(C[C@@H]5c6cc(O)c(OC)cc6CCN5C)ccc4O)c(OC)cc3CCN2C)cc1` the CPE inhibition was 0% (SARS-CoV-2; viral replication; Vero E6; 6.25 µM; relative to: mean of replicates).
For `CCCCN(CCCC)CCCNC(=O)c1cc(-c2ccc(Cl)s2)nc2ccccc12`, the maximum response was 72.5% (SARS-CoV-2; cytopathic effect; USA_WA1/2020; round 2, 5-point).
For `Cc1cccc(Cc2cnc(NC(=O)C3CCC3)s2)c1`, the MIC was 5 µM (≈ 1.43 µg/mL) (Histoplasma capsulatum; microbial growth).
`CN(C)CCOC(c1ccc(Cl)cc1)c1ccccn1` (centres unmarked) gave a selectivity index of greater than 3 (Ebola virus Zaire; pseudovirus entry; A549; relative to: CC50 over IC50).
The viability difference of `CNC(=O)[C@@H](NC(=O)[C@H](CC(C)C)[C@H](O)C(=O)NO)C(C)(C)C` is reported as -19.2% (Daboia russelii; C2C12; 100 µM, together with: Daboia russelii venom TN; relative to: venom alone).
With `Cc1cc(N2Cc3cnn(CCO)c3C2)c2cc3c(cc2n1)OCO3` the remaining activity was 41% (Lassa mammarenavirus; viral replication; Huh-7; 10 µM, 72 h).
`NC(=O)c1ncn([C@@H]2O[C@H](CO)[C@@H](O)[C@H]2O)n1` gave an EC90 of 545 ± 63 µM (SARS-CoV; virus yield; Urbani; 96 h).
`O=c1ccn([C@@H]2O[C@](F)(CO)[C@@H](O)[C@H]2O)c(=O)[nH]1`: viral replication “inhibited” (Andes virus; concentration not given).
With `Cn1c(=O)ccc2ccc(F)c(CCNC[C@H]3CN(c4cnc5c(n4)NC(=O)CO5)C(=O)O3)c21` the MIC50 was less than 0.015 µg/mL (Legionella pneumophila; microbial growth).
For `O=C(NCc1ccccc1Cl)C1CCCN(Cc2cccc(-c3ccc(F)cc3F)c2)C1` (centres unmarked), the AC50 was 14.1 µM (SARS-CoV-2; cytopathic effect, cell-based CPE; USA_WA1/2020).
`C[C@@]12C[C@@]3(O)O[C@@H](O1)[C@]1(COC(=O)c4ccc(O)cc4)[C@H]3C[C@@]12O[C@@H]1O[C@H](COC(=O)c2ccccc2)[C@@H](O)[C@H](O)[C@H]1O` gave an inhibition of -0.136% (rep main protease; reporter gene (mKate2), inhibitor; 20 µM).
The efficacy of `CC1CCCCN1CCCNC(=O)c1cc(Sc2cccc(Cl)c2)nc2ccccc12` (centres unmarked) is reported as 109% (SARS-CoV-2; cytopathic effect, cell-based CPE; USA_WA1/2020; round 2, 5-point dilution).
The remaining activity of `COCC1(C(=O)N2CC(=O)N[C@@H](CC(C)C)c3nc(cs3)C(=O)N[C@@H](Cc3ccccc3)c3nc(C)nn3CC(=O)N[C@@H](C(C)C)C2)CCC1` is reported as 92% (Lassa mammarenavirus; viral replication; Huh-7; 10 µM, 72 h).
The AC50 of `Cc1ccc(-c2cccc(CN3CCCC(c4nc5ccc(C)cc5c(=O)[nH]4)C3)c2)c(C)c1` (centres unmarked) is reported as 10 µM (SARS-CoV-2; cytopathic effect, cell-based CPE; USA_WA1/2020; round 2, 5-point dilution).
Under “patients with adverse event”, `Cn1cnc(Cn2c(=O)[nH]/c(=N\c3cc4cn(C)nc4cc3Cl)n(Cc3cc(F)c(F)cc3F)c2=O)n1` is recorded as 0% (human, severe renal impairment; oral, 375 mg, treatment-related dry mouth, Mild severity).
`O=C(Nc1ccc(N2CCCN(C(=O)c3cnccn3)CC2)nc1)c1ccc(Cl)cc1Cl` gave an IC90 of greater than 64 µM (Mycobacterium tuberculosis; bacterial growth; H37Ra-lux; 168 h).
`Cc1ccc2nc(Cl)c3cc(C(=O)NCCCN4CCC(C)CC4)sc3c2c1` gave an efficacy of 70.7% (SARS-CoV-2; cytopathic effect; USA_WA1/2020; round 2, 5-point).
For `CC(C)C[C@@H]1NC(=O)CN(C(=O)c2cccn(C)c2=O)CCN(C)C(=O)[C@H](C)NC(=O)CN(C)C(=O)[C@@H](Cc2c[nH]c3ccccc23)NC(=O)c2csc1n2`, the remaining activity was 55% (Lassa mammarenavirus; viral replication; Huh-7; 10 µM, 72 h).
With `CN1[C@@H]2CC[C@H]1C[C@@H](OC(c1ccccc1)c1ccc(Cl)cc1)C2` (some centres unmarked) the EC50 was greater than 100 µM (SARS-CoV-2; viral replication, high-content imaging screen; cell-based).
The MIC of `O=C(CC1CCCCC1)Nc1ncc(Cc2ccc3ccccc3c2)s1` is reported as 20 µM (≈ 7.29 µg/mL) (Histoplasma capsulatum; microbial growth).
For `Cc1ccc(C(=O)Nc2ccc(CN3CCN(C)CC3)c(C(F)(F)F)c2)cc1C#Cc1cnc2cccnn12`, the EC50 was greater than 100 µM (SARS-CoV-2; viral replication, high-content imaging screen; cell-based).
For `CN(CC1CCOC2(CCN(C(=O)C3(c4ccccc4)CCCC3)CC2)C1)S(C)(=O)=O` (centres unmarked), the EC50 was 12.6 µM (Venezuelan equine encephalitis virus; viral replication).
For `COc1ccc2c(c1)N(CCCN(C)C)c1ccccc1S2`, the EC50 was greater than 20 µM (SARS-CoV-2; viral replication, GFP plate reader screen; cell-based).
`NCCCCCc1cnc[nH]1` has a selectivity index of 1 (Ebola virus Zaire; pseudovirus entry; A549; relative to: CC50 over IC50).
With `CCC(=O)c1ccc2c(c1)N(CCCN1CCN(CCO)CC1)c1ccccc1S2` the EC50 was greater than 100 µM (SARS-CoV-2; viral replication, GFP plate reader screen; cell-based).
`CC[C@H](C)[C@H](NC(=O)[C@H](CC(C)C)NC(=O)[C@H](Cc1c[nH]c2ccccc12)NC(=O)[C@H](CCC(N)=O)NC(=O)[C@@H](NC(=O)[C@H](Cc1ccccc1)NC(=O)[C@H](C)NC(=O)[C@H](CCCCNC(=O)COCCOCCNC(=O)COCCOCCNC(=O)CC[C@H](NC(=O)CCCCCCCCCCCCCCCCCCC(=O)O)C(=O)O)NC(=O)[C@H](CCC(N)=O)NC(=O)[C@H](C)NC(=O)[C@@H](NC(=O)[C@H](CCCCN)NC(=O)[C@H](CC(=O)O)NC(=O)[C@H](CC(C)C)NC(=O)C(C)(C)NC(=O)[C@@H](NC(=O)[C@H](CO)NC(=O)[C@H](Cc1ccc(O)cc1)NC(=O)[C@H](CC(=O)O)NC(=O)[C@H](CO)NC(=O)[C@@H](NC(=O)[C@H](Cc1ccccc1)NC(=O)[C@@H](NC(=O)CNC(=O)[C@H](CCC(=O)O)NC(=O)C(C)(C)NC(=O)[C@@H](N)Cc1ccc(O)cc1)[C@@H](C)O)[C@@H](C)O)[C@@H](C)CC)[C@@H](C)CC)C(C)C)C(=O)N[C@@H](C)C(=O)NCC(=O)NCC(=O)N1CCC[C@H]1C(=O)N[C@@H](CO)C(=O)N[C@@H](CO)C(=O)NCC(=O)N[C@@H](C)C(=O)N1CCC[C@H]1C(=O)N1CCC[C@H]1C(=O)N1CCC[C@H]1C(=O)N[C@@H](CO)C(N)=O`: “subjects with catheter site erythema” 14.3% (healthy subjects; all MAD doses).
With `O=C(Nc1ccc(N2CCN(C(=O)c3cnccn3)CC2)nc1)c1ccc(Cl)cc1` the IC90 was greater than 64 µM (Mycobacterium tuberculosis; bacterial growth; H37Ra-lux; 168 h).
`O=C1NCCCOc2cccc(c2)C2c3ccc(cc3CCN2C(=O)c2ccc(C(=O)N3CCOCC3)cc2)Oc2ccc(O)c1c2` (centres unmarked) gave an Emax of 73.2% (Lassa mammarenavirus; viral replication; Huh-7; concentration not given).
For `Nc1ncnc2c1ncn2[C@@H]1O[C@@H]2COP(=O)(O)O[C@H]3[C@@H](O)[C@H](n4cnc5c(=O)[nH]cnc54)O[C@@H]3COP(=O)(O)O[C@H]2[C@H]1O`, the fold enrichment was 2.41 (Chikungunya virus; upregulated Reactome pathway, RNA sequencing, item: Chromatin modifying enzymes (R-HSA-3247509); HFF-1; relative to: CHIKV-infected untreated).
For `CN(C)CCOC1=Cc2ccccc2Sc2ccc(Cl)cc21`, the EC50 was greater than 100 µM (SARS-CoV-2; viral replication, high-content imaging screen; cell-based).
`Cc1nc2n(n1)CC(=O)N[C@@H](C(C)C)CN(C(=O)CN(C)C1CCCC1)CC(=O)N[C@@H](CC(C)C)c1nc(cs1)C(=O)N[C@H]2Cc1ccccc1` has a remaining activity of 98% (Lassa mammarenavirus; viral replication; Huh-7; 10 µM, 72 h).
`CCc1c(C(=O)C(N)=O)c2c(OCC(=O)O)cccc2n1Cc1ccccc1` gave a viability difference of -63.9% (Daboia russelii; C2C12; 100 µM, together with: Daboia russelii venom PB; relative to: venom alone).
For `CCN(CC)CCNC(=O)c1ccc(NS(C)(=O)=O)cc1`, the EC50 was 3.89 µM (SARS-CoV-2; viral replication, GFP plate reader screen; cell-based).
For `O=C(NCCCN1CCCCC1)c1cc(Sc2ccc(Cl)cc2)nc2ccccc12`, the maximum response was 94.3% (SARS-CoV-2; cytopathic effect; USA_WA1/2020; retest 8-point).
For `O=c1ccc2ccc(OCCCCN3CCN(c4cccc5sccc45)CC3)cc2[nH]1`, the EC50 was greater than 100 µM (SARS-CoV-2; viral replication, GFP plate reader screen; cell-based).
For `CNc1nc(N)ncc1-c1cn([C@@H]2O[C@H](CO[P@@](=O)(N[C@@H](C)C(=O)OC(C)C)Oc3ccccc3)[C@@H](O)[C@@]2(C)F)cn1`, antiviral activity read “inactive” (Nipah virus; concentration not given).
For `CCCCN(C)CCCNC(=O)c1ccc2nc(N3CCCCC3)sc2c1`, the AC50 was 10 µM (SARS-CoV-2; cytopathic effect, cell-based CPE; USA_WA1/2020; round 2, 5-point dilution).
`O=C1NCN(c2ccccc2)C12CCN(CCCC(c1ccc(F)cc1)c1ccc(F)cc1)CC2` gave an EC50 of greater than 100 µM (SARS-CoV-2; viral replication, GFP plate reader screen; cell-based).
With `CC1CCCN(CCCNC(=O)c2cc(Sc3ccc(F)cc3)nc3ccccc23)C1` (centres unmarked) the efficacy was 90.8% (SARS-CoV-2; cytopathic effect; USA_WA1/2020; retest 8-point).
`CCc1nc(C)c(C(=O)N(CC2COc3ccccc3O2)C(C)C)o1` (centres unmarked) has a remaining activity of 59% (Lassa mammarenavirus; viral replication; Huh-7; 10 µM, 72 h).
With `OCCOCCN1CCN(C(c2ccccc2)c2ccc(Cl)cc2)CC1` (centres unmarked) the IC50 was 3.4 ± 2.2 µM (Ebola virus Zaire; HIV/EBOV pseudovirion entry; A549; 48 h).
`CC(C)=CCC/C(C)=C/Cc1c(O)ccc(C(=O)/C=C/c2ccc(O)cc2)c1O` — result for antiviral activity: “active” (Chikungunya virus; replicon Gluc reporter; BHK-21 CHIKV replicon Gluc reporter; concentration not given, dose-dependent).
With `CCCCCCCCCCCCN(C)C(=O)CP(=O)(O)O` the MIC90 was 1.56 µg/mL (≈ 4.85 µM) (Bacillus anthracis; Davis).
The MIC90 of `O=[N+]([O-])c1ccc(C2=[N+]([O-])c3ccccc3N3CCN=C23)cc1` is reported as 0.125 µg/mL (≈ 0.405 µM) (Clostridium perfringens).
The remaining activity of `CCOc1ccc(CN(C)CC2CCCN(CCc3ccccc3OC)C2)cc1` (centres unmarked) is reported as 49% (Lassa mammarenavirus; viral replication; Huh-7; 10 µM, 72 h).
The mean inhibition of `O=C(/C=C/c1ccc(O)c(O)c1/C=C/c1ccc(O)c(O)c1)O[C@H](Cc1ccc(O)c(O)c1)C(=O)O` is reported as 0% (SARS-CoV-2; viral cytopathic effect; Vero E6; 6.25 µM).
With `Nc1ncnc2c([C@@H]3N[C@H](CO)[C@@H](O)[C@H]3O)c[nH]c12` the antigen-positive cells was 1.4% and 10.6% (Marburg virus; antibody staining; HeLa, Musoke; 6.3 µM).
With `O=C(Nc1ccc(N2CCN(C(=O)c3cnccn3)CC2)nc1)c1ccc(Br)cc1Cl` the IC90 was 4 µM (Mycobacterium tuberculosis; bacterial growth; H37Ra-lux; 168 h).
`COc1ccc(C[C@@H]2NC(=O)[C@@H](NC(=O)Cc3ccc4c(c3)OCO4)Cc3ccc(cc3)OC[C@H](CC(C)C)NC(=O)CN(CC3CC3)C(=O)[C@@H](C)NC2=O)cc1` has an Emax of 63.1% (Lassa mammarenavirus; viral replication; Huh-7; concentration not given).
`NC(=S)N/N=C(/c1cccc(O)c1)c1cccc(Br)c1` gave an inhibition of 1.01% (rep main protease; viral replication, mKate2 reporter; SARS-CoV-2; 20 µM).

Repeated from above:
For `O=c1ccc2ccc(OCCCCN3CCN(c4cccc5sccc45)CC3)cc2[nH]1`, the EC50 was greater than 100 µM (SARS-CoV-2; viral replication, GFP plate reader screen; cell-based).
With `COc1ccc(C[C@@H]2c3cc(Oc4cc(C[C@@H]5c6cc(O)c(OC)cc6CCN5C)ccc4O)c(OC)cc3CCN2C)cc1` the CPE inhibition was 0% (SARS-CoV-2; viral replication; Vero E6; 6.25 µM; relative to: mean of replicates).
`C[C@@]12C[C@@]3(O)O[C@@H](O1)[C@]1(COC(=O)c4ccc(O)cc4)[C@H]3C[C@@]12O[C@@H]1O[C@H](COC(=O)c2ccccc2)[C@@H](O)[C@H](O)[C@H]1O` gave an inhibition of -0.136% (rep main protease; reporter gene (mKate2), inhibitor; 20 µM).
